Published values from different studies.
Lines come from different studies, so protocols differ.

SMILES | test | system | setting | endpoint | value
Cc1cc(NC(=O)[C@H](O)c2cc(F)cc(F)c2)ccc1-c1cnc(N)c(C(=O)NC(C)C)c1 | equilibrium dialysis | nu/nu mouse, female, plasma | 1 µM, 6 h, pH 7.4, 37 °C | unbound fraction | 0.023
O=C1CCc2ccc(NS(=O)(=O)c3cccc(Oc4ccccc4)c3)cc2N1 | rapid equilibrium dialysis | C57BL/6J mouse, plasma | – | unbound fraction | 0.39%
Cc1ccc(CNC(=O)Cc2ccc(-c3ccc(OCCN4CCOCC4)cc3)cn2)cc1 | – | mouse, plasma | – | unbound fraction | 0.057
OC1(C(F)(F)F)CCN(c2nc(Nc3ccnc(C(F)(F)F)c3)nc(-c3cccc(C(F)(F)F)n3)n2)C1 (centres unmarked) | – | mouse CD-1, plasma | 0.5, 5 and 50 µM, 6 h | unbound fraction | < 0.005
CCCCCCCCCCCCCCCC(=O)NCCOCCOCCOCCOCCOCCOCCOCCOCCC(=O)NCCCC[C@H](NC(=O)CNC(=O)[C@@H]1CSSC[C@H](N)C(=O)N[C@@H](Cc2ccc(O)cc2)C(=O)N[C@@H]([C@@H](C)CC)C(=O)N[C@@H](CCC(N)=O)C(=O)N[C@@H](CC(N)=O)C(=O)N1)C(=O)NCC(N)=O | – | mouse, plasma | subcutaneous, non-depot, 1 mg/kg | unbound Cmax | 0.6 nM
O=C(Cc1ccc(-c2ccc(OCCN3CCOCC3)cc2)cn1)NCc1ccc(F)cc1 | – | mouse, plasma | – | unbound fraction | 0.107
Cc1nc(N[C@@H](C)c2ccc(-c3nc(C4CC4)no3)cc2)c2cc(C)oc2n1 | – | mouse, plasma | – | unbound fraction | 0.0029
Nc1nc(Cl)nc2c1ncn2Cc1cc(OCC(F)F)cc(OC(F)F)c1 | – | C57BL/6J mouse male, brain homogenate | oral, 5.0 mg/kg, 4 h | unbound brain concentration | 114 ng/g

Repeated from above:
SMILES | test | system | setting | endpoint | value
CCCCCCCCCCCCCCCC(=O)NCCOCCOCCOCCOCCOCCOCCOCCOCCC(=O)NCCCC[C@H](NC(=O)CNC(=O)[C@@H]1CSSC[C@H](N)C(=O)N[C@@H](Cc2ccc(O)cc2)C(=O)N[C@@H]([C@@H](C)CC)C(=O)N[C@@H](CCC(N)=O)C(=O)N[C@@H](CC(N)=O)C(=O)N1)C(=O)NCC(N)=O | – | mouse, plasma | subcutaneous, non-depot, 1 mg/kg | unbound Cmax | 0.6 nM
